Published values of several laboratories.
A part holds a random share of what one study measured.
Sequence of UniProt P10721 (whole entry, unmodified, looked up): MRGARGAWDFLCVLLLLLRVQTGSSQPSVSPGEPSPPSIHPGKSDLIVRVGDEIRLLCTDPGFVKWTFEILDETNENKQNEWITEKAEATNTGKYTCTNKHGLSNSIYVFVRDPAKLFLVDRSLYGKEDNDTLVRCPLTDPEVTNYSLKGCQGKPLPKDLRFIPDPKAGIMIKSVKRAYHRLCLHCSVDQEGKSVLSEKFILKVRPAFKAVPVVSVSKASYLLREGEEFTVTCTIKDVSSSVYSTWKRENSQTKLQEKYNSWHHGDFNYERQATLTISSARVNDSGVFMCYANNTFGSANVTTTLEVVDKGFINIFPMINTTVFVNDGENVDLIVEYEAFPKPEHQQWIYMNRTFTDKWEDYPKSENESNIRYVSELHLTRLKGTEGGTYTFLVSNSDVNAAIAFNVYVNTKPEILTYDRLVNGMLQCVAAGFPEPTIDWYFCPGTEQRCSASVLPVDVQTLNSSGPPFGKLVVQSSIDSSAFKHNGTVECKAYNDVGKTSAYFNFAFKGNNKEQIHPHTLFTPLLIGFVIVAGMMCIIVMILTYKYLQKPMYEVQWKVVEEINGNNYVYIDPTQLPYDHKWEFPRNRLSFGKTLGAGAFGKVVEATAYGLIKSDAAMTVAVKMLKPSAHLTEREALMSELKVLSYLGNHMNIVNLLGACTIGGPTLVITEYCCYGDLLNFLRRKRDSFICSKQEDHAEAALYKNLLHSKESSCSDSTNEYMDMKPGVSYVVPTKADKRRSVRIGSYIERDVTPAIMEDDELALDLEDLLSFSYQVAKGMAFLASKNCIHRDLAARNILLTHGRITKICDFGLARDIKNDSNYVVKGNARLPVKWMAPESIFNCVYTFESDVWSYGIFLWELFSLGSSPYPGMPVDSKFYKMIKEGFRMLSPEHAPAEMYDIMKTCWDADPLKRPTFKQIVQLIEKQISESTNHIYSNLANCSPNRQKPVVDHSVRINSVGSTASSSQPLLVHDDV
Sequence of UniProt Q9Y2H9 (whole entry, looked up): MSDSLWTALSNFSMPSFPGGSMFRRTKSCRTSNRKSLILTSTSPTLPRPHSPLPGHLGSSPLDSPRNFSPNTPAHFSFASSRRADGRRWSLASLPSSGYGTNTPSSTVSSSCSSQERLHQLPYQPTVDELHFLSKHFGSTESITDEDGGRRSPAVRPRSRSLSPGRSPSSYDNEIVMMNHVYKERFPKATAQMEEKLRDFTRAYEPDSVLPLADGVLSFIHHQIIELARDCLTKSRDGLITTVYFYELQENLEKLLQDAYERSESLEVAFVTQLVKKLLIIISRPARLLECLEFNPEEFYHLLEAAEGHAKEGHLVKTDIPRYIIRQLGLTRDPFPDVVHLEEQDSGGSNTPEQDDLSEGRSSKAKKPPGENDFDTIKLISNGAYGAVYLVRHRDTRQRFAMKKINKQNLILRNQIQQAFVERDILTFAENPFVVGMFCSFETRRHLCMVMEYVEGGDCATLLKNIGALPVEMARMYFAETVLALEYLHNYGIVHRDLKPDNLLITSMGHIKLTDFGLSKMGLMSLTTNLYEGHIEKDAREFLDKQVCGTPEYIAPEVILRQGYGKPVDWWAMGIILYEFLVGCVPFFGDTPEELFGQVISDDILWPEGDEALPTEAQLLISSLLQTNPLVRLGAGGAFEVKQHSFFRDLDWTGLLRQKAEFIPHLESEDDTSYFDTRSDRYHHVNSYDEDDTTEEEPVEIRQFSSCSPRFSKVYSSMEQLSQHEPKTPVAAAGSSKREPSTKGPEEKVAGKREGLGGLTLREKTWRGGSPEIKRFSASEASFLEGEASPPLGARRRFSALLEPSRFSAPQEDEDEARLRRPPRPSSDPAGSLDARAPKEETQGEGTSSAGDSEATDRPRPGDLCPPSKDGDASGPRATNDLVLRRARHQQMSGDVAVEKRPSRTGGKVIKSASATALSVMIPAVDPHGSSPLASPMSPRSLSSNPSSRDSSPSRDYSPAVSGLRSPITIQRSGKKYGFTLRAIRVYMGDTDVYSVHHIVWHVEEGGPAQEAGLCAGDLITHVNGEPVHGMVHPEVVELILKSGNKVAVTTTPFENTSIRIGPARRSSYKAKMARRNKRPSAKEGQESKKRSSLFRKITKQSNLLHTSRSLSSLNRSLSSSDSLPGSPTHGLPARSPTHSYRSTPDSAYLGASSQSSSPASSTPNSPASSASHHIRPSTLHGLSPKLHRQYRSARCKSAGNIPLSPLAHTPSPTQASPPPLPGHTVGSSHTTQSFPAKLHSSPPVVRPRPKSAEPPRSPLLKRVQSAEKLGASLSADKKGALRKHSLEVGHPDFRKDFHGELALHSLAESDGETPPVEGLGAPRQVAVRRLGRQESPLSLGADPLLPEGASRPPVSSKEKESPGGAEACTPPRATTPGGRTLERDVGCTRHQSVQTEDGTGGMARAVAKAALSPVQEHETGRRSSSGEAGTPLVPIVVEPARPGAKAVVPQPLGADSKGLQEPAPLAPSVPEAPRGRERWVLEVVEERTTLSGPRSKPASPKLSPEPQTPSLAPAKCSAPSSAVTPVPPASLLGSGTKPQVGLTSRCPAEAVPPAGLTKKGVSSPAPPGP
Sequence of UniProt P09769 (whole entry, looked up): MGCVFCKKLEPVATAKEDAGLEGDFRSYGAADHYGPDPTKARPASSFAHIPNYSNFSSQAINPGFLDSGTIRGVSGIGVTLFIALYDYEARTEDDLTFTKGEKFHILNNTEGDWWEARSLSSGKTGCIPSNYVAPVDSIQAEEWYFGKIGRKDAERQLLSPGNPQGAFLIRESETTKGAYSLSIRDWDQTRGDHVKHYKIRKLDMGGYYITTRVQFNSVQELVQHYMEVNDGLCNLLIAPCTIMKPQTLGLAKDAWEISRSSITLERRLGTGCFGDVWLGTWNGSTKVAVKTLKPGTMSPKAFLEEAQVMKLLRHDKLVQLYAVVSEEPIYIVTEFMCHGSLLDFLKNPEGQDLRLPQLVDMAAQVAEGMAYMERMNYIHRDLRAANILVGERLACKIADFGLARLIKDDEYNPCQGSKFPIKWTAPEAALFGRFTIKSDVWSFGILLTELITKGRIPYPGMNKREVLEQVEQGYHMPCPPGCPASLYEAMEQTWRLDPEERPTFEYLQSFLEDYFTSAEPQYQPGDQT
Sequence of UniProt P29320 (whole entry, looked up): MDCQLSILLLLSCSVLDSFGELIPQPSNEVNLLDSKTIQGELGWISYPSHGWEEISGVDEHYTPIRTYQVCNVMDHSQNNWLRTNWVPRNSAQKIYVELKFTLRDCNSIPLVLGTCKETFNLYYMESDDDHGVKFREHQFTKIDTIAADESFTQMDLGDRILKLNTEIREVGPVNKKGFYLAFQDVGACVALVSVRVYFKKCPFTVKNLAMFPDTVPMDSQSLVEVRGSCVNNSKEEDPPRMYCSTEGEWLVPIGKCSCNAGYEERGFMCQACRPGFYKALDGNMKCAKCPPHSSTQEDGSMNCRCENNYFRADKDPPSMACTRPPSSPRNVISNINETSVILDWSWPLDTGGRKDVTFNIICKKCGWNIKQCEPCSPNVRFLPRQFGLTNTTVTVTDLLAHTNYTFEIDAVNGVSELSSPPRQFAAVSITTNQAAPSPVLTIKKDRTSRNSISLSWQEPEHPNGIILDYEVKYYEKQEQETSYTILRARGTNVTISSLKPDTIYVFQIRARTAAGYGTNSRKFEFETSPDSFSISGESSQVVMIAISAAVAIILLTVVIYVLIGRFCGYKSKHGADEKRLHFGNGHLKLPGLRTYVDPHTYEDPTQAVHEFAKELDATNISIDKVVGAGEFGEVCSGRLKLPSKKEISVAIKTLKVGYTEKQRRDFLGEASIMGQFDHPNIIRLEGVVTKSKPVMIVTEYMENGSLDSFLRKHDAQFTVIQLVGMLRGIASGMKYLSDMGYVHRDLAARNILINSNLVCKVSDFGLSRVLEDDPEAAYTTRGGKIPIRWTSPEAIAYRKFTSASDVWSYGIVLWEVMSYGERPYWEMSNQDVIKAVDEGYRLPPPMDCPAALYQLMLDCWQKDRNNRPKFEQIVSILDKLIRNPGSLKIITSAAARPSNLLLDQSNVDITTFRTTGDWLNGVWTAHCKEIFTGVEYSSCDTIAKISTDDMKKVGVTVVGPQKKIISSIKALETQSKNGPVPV
Sequence of UniProt Q9UIK4 (whole entry, looked up): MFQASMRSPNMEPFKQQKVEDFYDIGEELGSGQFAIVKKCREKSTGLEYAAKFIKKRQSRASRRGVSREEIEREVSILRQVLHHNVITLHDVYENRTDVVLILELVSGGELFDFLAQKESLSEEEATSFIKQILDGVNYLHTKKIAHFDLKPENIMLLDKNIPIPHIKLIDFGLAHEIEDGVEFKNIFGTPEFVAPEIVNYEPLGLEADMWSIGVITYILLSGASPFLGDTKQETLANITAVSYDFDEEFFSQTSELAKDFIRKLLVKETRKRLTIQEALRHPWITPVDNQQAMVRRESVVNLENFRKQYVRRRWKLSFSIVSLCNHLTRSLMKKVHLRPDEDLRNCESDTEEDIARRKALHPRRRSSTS

Block 1 — read-out: enzyme activity; action: inhibitor; concentration: 0.5 µM; reference: control
Target: Tyrosine-protein kinase ZAP-70 (ZAP70, Homo sapiens, UniProt P43403)
Sequence of UniProt P43403 (whole entry, looked up): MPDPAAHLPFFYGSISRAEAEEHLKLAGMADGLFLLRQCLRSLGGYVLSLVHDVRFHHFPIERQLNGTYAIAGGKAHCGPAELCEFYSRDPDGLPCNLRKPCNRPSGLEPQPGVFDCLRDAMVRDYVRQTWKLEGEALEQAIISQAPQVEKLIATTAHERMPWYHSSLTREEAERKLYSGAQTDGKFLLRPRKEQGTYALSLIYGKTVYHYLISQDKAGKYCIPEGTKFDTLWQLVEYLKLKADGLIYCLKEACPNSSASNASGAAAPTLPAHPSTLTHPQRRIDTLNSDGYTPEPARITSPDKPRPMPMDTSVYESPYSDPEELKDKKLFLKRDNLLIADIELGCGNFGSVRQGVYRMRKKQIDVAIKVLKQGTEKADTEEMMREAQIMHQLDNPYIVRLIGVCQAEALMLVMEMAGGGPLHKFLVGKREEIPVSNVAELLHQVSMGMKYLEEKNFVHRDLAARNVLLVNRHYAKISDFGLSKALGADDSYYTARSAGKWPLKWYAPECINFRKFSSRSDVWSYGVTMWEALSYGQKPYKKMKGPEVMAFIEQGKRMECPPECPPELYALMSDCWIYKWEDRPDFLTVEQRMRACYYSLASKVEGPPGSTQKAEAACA
SMILES	remaining activity
Nc1cccc(-c2cc3c(Oc4cccc(O)c4)ncnc3[nH]2)c1	97.5%
Cc1cn(-c2cc(NC(=O)c3ccc(C)c(Nc4nccc(-c5cccnc5)n4)c3)cc(C(F)(F)F)c2)cn1	95.1%
Cn1nc2c3c(cccc31)C(=O)c1ccccc1-2	95.1%
COc1cc2ncnc(Nc3cccc(Cl)c3)c2cc1OC	102%
CCN(CC)C(=O)c1ccc(Nc2nc(OCC3CCCCC3)c3[nH]cnc3n2)cc1	94%
O=C1c2ccccc2-c2n[nH]c3cccc1c23	88.8%
c1ccc(-c2[nH]ncc2-c2ccnc3ccccc23)nc1	100%
COc1cc2ncnc(Nc3ccc(O)c(Br)c3)c2cc1OC	99.7%
CN([C@@H](Cc1ccc(OS(=O)(=O)c2cccc3cnccc23)cc1)C(=O)N1CCN(c2ccccc2)CC1)S(=O)(=O)c1cccc2cnccc12	99.5%
C[C@@H]1CCN(C(=O)CC#N)C[C@@H]1N(C)c1ncnc2[nH]ccc12	105%
CCN(CC)CCNC(=O)c1c(C)[nH]c(/C=C2\C(=O)Nc3ccc(F)cc32)c1C	97.2%
Cc1nc2cc3nc(-c4cccs4)cnc3cc2n1C	93.3%
CCN(CC)CCNC(=O)c1c(C)[nH]c(/C=C2\C(=O)Nc3ccc(Cl)cc32)c1C	91.2%
Ic1cccc(CSc2nnc(-c3ccncc3)o2)c1	107%

Block 2 — cell line: Huh-7; concentration: 10 µM; time: 24 h
SMILES	viability [%]
CC[C@]1(O)C[C@H]2CN(CCc3c([nH]c4ccccc34)[C@@](C(=O)OC)(c3cc4c(cc3OC)N(C=O)[C@H]3[C@@](O)(C(=O)OC)[C@H](OC(C)=O)[C@]5(CC)C=CCN6CC[C@]43[C@@H]65)C2)C1	60.9
COc1c(N2C[C@@H]3CCCN[C@@H]3C2)c(F)cc2c(=O)c(C(=O)O)cn(C3CC3)c12	99
CCOc1ccc2nc(S(N)(=O)=O)sc2c1	98.8
CC(C)(C)NCC(O)COc1cccc2c1C[C@H](O)[C@H](O)C2 (mixture of isomers)	97.5
[H]/N=C(/N)N[C@H]1[C@H](O)[C@@H](O)[C@H](O[C@@H]2O[C@@H](C)[C@](O)(C=O)[C@H]2O[C@@H]2O[C@@H](CO)[C@H](O)[C@@H](O)[C@@H]2NC)[C@@H](N/C(N)=N\[H])[C@@H]1O	96.9
COc1ccc2[nH]c([S+]([O-])Cc3ncc(C)c(OC)c3C)nc2c1 (stereo not shown)	95
CC(=O)OCC(=O)[C@@]12OC3(CCCC3)O[C@@H]1C[C@H]1[C@@H]3CCC4=CC(=O)C=C[C@]4(C)[C@@]3(F)[C@@H](O)C[C@@]12C	97.4
NCCc1ccc(O)c(O)c1	99.2
O=C(N[C@H](CO)[C@H](O)c1ccc([N+](=O)[O-])cc1)C(Cl)Cl	94.6
COc1ccc(CN(CCN(C)C)c2ccccn2)cc1	102
NS(=O)(=O)c1cc2c(cc1C(F)(F)F)NC(Cc1ccccc1)NS2(=O)=O (stereo not shown)	103
[H]/N=C(\N/C(=N/[H])Nc1ccc(Cl)cc1)NC(C)C	102
CC1=C(C(=O)O)N2C(=O)[C@@H](NC(=O)[C@H](N)c3ccc(O)cc3)[C@H]2SC1	104

Block 3 — cell line: A-375; concentration: 100 µM; time: 36 h
SMILES	viability
Clc1ccccc1CN1CCc2sccc2C1	5.97%
O=C(OOC(=O)c1ccccc1)c1ccccc1	111%
C#C[C@]1(O)CC[C@H]2[C@@H]3CCc4cc(O)ccc4[C@H]3CC[C@@]21C	13.4%
COc1cc(NS(=O)(=O)c2ccc(N)cc2)nc(OC)n1	54.5%
Cc1cc(CC(=O)O)n(C)c1C(=O)c1ccc(Cl)cc1	106%
CCC1(c2ccccc2)C(=O)NCNC1=O	123%
C[N+](C)(C)CC(O)CC(=O)[O-] (racemic)	116%
O=C(O)c1cc(/N=N/c2ccc(O)c(C(=O)O)c2)ccc1O	96.5%
Cc1cc(O)c2c(c1)C(=O)c1cccc(O)c1C2=O	124%
CCOC(=O)CC(=O)N1CCSC1COc1ccccc1OC (stereo not shown)	111%

Block 4 — read-out: cell-free assay; technique: competition with immobilised ligand; concentration: 1 µM
Compound: CNCc1ccccc1-c1csc([C@H](C)Nc2nc(C)nc3cc(OC)c(OC)cc23)c1
target	remaining binding [%]
TNIK (Homo sapiens, UniProt Q9UKE5)	99
MAPK10 (Homo sapiens, UniProt P53779)	74
CDKL1 (Homo sapiens, UniProt Q00532)	100
Tyrosine-protein kinase ABL1, non-phosphorylated (ABL1, Homo sapiens, UniProt P00519, Q252H)	76
MAST1 (Homo sapiens, UniProt Q9Y2H9)	96
EPHA3 (Homo sapiens, UniProt P29320)	100
KDR (Homo sapiens, UniProt P35968)	91
PIK3CA (Homo sapiens, UniProt P42336, E545A)	97
EGFR (Homo sapiens, UniProt P00533)	100
TLK1 (Homo sapiens, UniProt Q9UKI8)	100
MAP3K1 (Homo sapiens, UniProt Q13233)	97
Mast/stem cell growth factor receptor Kit, autoinhibited (KIT, Homo sapiens, UniProt P10721)	70
KIT (Homo sapiens, UniProt P10721, T670I/V559D)	100
DAPK2 (Homo sapiens, UniProt Q9UIK4)	100
MAPK3 (Homo sapiens, UniProt P27361)	100
MAP3K10 (Homo sapiens, UniProt Q02779)	100
FGR (Homo sapiens, UniProt P09769)	100
KIT (Homo sapiens, UniProt P10721, L576P)	100
